Measurements from different studies.
Each line is one published result; not all experiments were run side by side. Numbers after ± are the reported error.
Cytochrome P450 2A13: Cytochrome P450 2A13 (Homo sapiens, UniProt Q16696)
Chain of UniProt Q16696 (whole entry, looked up): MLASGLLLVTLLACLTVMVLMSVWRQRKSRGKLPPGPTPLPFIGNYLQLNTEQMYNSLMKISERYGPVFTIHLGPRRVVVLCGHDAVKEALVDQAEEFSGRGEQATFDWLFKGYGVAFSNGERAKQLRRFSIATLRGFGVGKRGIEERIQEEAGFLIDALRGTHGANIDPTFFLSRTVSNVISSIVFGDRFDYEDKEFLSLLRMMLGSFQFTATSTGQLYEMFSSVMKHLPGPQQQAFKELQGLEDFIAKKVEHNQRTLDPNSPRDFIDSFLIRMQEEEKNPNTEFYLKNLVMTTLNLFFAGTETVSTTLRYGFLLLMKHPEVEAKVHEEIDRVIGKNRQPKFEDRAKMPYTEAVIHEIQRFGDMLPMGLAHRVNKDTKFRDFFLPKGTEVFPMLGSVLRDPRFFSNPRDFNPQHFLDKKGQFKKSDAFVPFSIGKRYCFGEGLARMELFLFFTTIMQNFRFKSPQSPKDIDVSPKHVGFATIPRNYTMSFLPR
gag-pol reverse transcriptase: Gag-Pol polyprotein, reverse transcriptase (gag-pol, Human immunodeficiency virus 1, UniProt P03366)
Uncharacterized protein: Uncharacterized protein (Equus caballus, UniProt Q38RB9)
Chain of UniProt Q14765 (whole entry, looked up): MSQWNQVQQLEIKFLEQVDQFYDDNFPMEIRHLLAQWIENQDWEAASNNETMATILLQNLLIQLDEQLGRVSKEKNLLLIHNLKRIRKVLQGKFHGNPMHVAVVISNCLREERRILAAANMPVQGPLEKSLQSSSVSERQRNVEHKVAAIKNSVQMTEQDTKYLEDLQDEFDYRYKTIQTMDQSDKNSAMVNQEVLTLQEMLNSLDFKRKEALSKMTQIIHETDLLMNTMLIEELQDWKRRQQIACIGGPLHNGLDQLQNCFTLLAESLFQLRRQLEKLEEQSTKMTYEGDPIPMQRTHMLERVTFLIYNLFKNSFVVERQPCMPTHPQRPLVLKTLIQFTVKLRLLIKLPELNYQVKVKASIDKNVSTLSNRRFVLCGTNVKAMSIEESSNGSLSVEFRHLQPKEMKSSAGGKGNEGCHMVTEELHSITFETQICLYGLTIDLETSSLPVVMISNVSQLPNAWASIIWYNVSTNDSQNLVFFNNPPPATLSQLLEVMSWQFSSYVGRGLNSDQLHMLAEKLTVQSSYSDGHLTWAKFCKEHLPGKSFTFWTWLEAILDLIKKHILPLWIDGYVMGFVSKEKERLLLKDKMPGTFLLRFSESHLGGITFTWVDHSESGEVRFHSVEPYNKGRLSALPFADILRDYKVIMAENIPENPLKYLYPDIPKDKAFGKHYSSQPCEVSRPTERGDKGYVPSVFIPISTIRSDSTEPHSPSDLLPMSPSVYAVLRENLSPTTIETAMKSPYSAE
Chain of UniProt Q62645 (whole entry, looked up): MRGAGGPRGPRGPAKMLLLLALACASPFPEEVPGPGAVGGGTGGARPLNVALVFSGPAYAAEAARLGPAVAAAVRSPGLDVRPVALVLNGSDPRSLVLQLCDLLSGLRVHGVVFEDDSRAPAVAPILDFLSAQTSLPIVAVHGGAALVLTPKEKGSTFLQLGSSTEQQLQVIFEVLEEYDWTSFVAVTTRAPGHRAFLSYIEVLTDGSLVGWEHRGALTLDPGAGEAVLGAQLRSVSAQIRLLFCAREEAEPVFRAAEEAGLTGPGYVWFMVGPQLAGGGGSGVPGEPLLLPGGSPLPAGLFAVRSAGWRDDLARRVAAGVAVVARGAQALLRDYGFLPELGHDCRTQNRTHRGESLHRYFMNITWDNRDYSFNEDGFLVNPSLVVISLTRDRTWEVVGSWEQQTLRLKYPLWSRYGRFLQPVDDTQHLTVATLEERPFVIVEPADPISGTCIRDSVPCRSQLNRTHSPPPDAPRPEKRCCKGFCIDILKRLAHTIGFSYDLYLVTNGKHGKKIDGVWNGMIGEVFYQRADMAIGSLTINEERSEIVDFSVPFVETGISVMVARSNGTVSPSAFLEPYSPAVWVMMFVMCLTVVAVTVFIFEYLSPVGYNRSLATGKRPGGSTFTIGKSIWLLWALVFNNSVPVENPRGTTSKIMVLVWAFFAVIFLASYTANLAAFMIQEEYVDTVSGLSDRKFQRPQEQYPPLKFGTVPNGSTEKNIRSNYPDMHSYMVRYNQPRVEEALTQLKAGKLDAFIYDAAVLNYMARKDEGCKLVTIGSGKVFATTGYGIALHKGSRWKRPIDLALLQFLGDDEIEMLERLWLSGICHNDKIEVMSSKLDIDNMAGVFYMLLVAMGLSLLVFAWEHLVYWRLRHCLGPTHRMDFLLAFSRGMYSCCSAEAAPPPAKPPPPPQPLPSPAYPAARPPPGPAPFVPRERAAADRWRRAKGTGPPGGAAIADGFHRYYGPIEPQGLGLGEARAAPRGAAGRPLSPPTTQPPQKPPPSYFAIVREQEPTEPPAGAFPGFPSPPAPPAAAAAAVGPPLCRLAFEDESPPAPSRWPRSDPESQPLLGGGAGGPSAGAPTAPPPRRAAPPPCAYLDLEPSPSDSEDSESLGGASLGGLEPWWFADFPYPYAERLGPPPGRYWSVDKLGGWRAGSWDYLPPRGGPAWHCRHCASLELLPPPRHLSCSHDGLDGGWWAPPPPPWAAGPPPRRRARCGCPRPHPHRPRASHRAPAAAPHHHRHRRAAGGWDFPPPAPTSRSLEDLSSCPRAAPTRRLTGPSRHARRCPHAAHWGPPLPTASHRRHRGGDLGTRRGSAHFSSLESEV
Chain of UniProt Q00987 (whole entry, looked up): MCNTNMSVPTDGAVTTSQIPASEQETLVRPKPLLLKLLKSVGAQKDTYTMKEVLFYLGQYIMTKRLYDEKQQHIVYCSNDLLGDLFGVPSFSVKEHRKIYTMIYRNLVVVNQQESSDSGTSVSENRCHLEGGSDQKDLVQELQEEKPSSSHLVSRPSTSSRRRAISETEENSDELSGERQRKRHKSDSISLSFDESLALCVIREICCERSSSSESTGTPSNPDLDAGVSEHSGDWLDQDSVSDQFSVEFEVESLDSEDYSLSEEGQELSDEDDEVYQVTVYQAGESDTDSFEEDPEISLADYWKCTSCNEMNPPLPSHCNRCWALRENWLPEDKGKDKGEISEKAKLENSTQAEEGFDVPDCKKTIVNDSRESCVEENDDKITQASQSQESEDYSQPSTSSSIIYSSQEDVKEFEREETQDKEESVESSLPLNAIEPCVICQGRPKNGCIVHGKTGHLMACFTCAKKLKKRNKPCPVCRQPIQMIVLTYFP
Chain of UniProt P02716 (whole entry, looked up): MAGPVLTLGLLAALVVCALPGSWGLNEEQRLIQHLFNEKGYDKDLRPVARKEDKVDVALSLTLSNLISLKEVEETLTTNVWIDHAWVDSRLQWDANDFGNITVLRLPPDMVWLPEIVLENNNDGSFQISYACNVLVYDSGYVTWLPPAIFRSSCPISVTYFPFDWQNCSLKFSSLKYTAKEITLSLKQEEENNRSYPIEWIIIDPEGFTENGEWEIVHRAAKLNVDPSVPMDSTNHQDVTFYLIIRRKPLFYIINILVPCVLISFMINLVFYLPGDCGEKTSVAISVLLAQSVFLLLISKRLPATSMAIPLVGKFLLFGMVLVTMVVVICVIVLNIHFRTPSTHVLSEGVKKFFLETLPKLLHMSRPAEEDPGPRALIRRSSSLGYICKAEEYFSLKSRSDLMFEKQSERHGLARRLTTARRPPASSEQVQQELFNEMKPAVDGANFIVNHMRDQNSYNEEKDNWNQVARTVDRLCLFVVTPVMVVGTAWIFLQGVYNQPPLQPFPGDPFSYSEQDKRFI
Chain of UniProt P21462 (whole entry, looked up): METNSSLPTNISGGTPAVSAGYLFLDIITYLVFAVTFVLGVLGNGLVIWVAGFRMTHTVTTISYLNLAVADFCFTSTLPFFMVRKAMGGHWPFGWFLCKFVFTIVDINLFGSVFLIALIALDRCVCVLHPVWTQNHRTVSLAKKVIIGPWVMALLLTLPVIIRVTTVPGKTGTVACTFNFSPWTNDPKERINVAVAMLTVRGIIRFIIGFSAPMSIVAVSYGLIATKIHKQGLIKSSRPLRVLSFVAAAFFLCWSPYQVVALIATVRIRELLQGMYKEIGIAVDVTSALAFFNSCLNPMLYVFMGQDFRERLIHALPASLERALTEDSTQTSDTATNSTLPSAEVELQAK
Chain of UniProt P00441 (whole entry, looked up): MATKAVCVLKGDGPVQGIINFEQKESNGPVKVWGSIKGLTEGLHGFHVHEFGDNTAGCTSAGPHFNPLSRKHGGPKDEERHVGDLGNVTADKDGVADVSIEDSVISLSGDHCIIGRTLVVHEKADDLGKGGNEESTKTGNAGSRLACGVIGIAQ
Chain of UniProt P04756 (whole entry, looked up): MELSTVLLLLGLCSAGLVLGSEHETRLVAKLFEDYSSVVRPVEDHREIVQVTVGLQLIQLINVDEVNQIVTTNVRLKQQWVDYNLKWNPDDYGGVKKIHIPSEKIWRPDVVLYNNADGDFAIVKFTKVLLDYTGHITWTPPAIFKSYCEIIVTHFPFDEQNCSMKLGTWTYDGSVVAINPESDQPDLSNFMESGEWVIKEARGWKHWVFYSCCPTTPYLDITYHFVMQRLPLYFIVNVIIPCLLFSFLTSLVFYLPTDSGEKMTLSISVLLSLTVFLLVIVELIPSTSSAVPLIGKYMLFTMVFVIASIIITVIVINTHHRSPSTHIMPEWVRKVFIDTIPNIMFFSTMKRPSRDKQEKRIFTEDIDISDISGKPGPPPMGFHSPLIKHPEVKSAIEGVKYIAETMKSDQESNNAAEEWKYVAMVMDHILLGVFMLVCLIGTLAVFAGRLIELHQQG

SMILES	target	assay	test system	setting	IC50
COc1cc2c3cc1Oc1cc(ccc1O)C[C@@H]1c4c(cc(OC)c(O)c4Oc4ccc(cc4)C[C@@H]3N(C)CC2)CC[N+]1(C)C	Chrnd/Chrna1/Chrne (Mus musculus, UniProt P02716+P04756+P20782)	endplate current peak height, inhibitor, two-electrode voltage clamp	mouse hemidiaphragm	holding potential -80 mV, AChE intact	186 nM
COc1cc(Nc2ncc(F)c(Nc3ccc4c(n3)NC(=O)C(C)(C)O4)n2)cc(OC)c1OC	FPR1 (Homo sapiens, UniProt P21462)				> 10000 nM
Cc1ccccc1	Cytochrome P450 2A13	coumarin 7-hydroxylation, inhibitor		20 (unit not given), pH 7.4, range of group, together with: 10 µM coumarin	> 200000 nM
O=C1CSC(c2cccc(Cl)c2Cl)N1c1cccc(S(=O)(=O)Nc2nccs2)c1 (centres unmarked)	gag-pol reverse transcriptase				> 4000 nM
O=C(O)CC(F)(F)C(=O)N1N=C(c2c(-c3ccc(Cl)cc3)c3ccccc3[nH]c2=O)C[C@H]1c1ccc(Cl)cc1	Ionotropic glutamate receptor NMDA 1/2D (Rattus norvegicus, UniProt P35439+Q62645)	ion current, inhibitor, two-electrode voltage clamp	Xenopus oocytes	together with: glycine and glutamate	23 nM
Oc1ccc2ccc3cccc4ccc1c2c34	Cytochrome P450 2A13	enzyme activity, inhibitor		20 min, pH 7.4	> 180000 nM
CO[C@]1([C@@H]2CSC(=O)N2Cc2ccccc2)C[C@H]2C[C@@H](CC[C@H](C)/C=C\C=C\CC/C(C)=C\C(=O)O2)O1	Actin, alpha skeletal muscle, pyrene-labeled (ACTA1, Oryctolagus cuniculus, UniProt P68135)	actin polymerization, pyrene actin			333 ± 76 nM
CC[C@H](C)[C@H](NC(=O)[C@H](CCCCN)NC(=O)[C@@H](NC(=O)[C@H](Cc1c[nH]cn1)NC(=O)[C@H](CO)NC(=O)[C@@H]1CCCN1C(=O)[C@H](CC(C)C)NC(=O)[C@H](CC(=O)O)NC(=O)[C@@H](N)CCCNC(=N)N)[C@@H](C)O)C(=O)O	Uncharacterized protein	peptide binding, competitor, competitive radioligand binding	purified horse MHC class I	pH 7	4.5 nM
O=C1CSC(c2c(F)cccc2Cl)N1c1nc(-c2ccc(S(=O)(=O)N3CCCC3)cc2)cs1 (centres unmarked)	gag-pol reverse transcriptase				> 4000 nM
O=P(O)(O)Oc1ccccc1OP(=O)(O)O	Signal transducer and activator of transcription 4 (Homo sapiens, UniProt Q14765)	inhibitor			68000 ± 6000 nM
COc1ccc([C@@H]2CC(=O)c3c(O)cc(O[C@@H]4O[C@H](CO[C@@H]5O[C@@H](C)[C@H](O)[C@@H](O)[C@H]5O)[C@@H](O)[C@H](O)[C@H]4O)cc3O2)cc1O	Superoxide dismutase [Cu-Zn], fully metallated (SOD1, Homo sapiens, UniProt P00441)	enzyme activity, inhibitor, XTT			> 75000 nM
CCOC(=O)[C@H]1Cc2c(cc([N+](=O)[O-])cc2[N+](=O)[O-])[C@@H](O)[C@@]12C(=O)Nc1cccc(Br)c12	MDM2 (Homo sapiens, UniProt Q00987)				1400 ± 130 nM
OC[C@@H]1[C@@H](O)[C@H](O)[C@@H](O)CN1CCc1ccc(CCNc2cc(O)cc(-c3cccnn3)c2)cc1	Ganab (Mus musculus, UniProt Q8BHN3)	enzyme activity, inhibitor		together with: 4-methylumbelliferyl substrate	< 1 nM
CC[C@H](C)[C@H](NC(=O)[C@H](CCC(=O)O)NC(=O)[C@@H](NC(=O)CNC(=O)[C@H](CCCNC(=N)N)NC(=O)[C@H](CCC(=O)O)NC(=O)[C@H](CC(C)C)NC(=O)[C@H](CC(=O)O)NC(=O)[C@@H](N)CCCNC(=N)N)C(C)C)C(=O)O	Uncharacterized protein	peptide binding, competitor, competitive radioligand binding	purified horse MHC class I	pH 7	2.2 nM

For quick reference, copied from above:
SMILES	target	assay	test system	setting	IC50
COc1ccc([C@@H]2CC(=O)c3c(O)cc(O[C@@H]4O[C@H](CO[C@@H]5O[C@@H](C)[C@H](O)[C@@H](O)[C@H]5O)[C@@H](O)[C@H](O)[C@H]4O)cc3O2)cc1O	Superoxide dismutase [Cu-Zn], fully metallated (SOD1, Homo sapiens, UniProt P00441)	enzyme activity, inhibitor, XTT			> 75000 nM
OC[C@@H]1[C@@H](O)[C@H](O)[C@@H](O)CN1CCc1ccc(CCNc2cc(O)cc(-c3cccnn3)c2)cc1	Ganab (Mus musculus, UniProt Q8BHN3)	enzyme activity, inhibitor		together with: 4-methylumbelliferyl substrate	< 1 nM
